Experimental data from different studies.
Parts stem from different laboratories: compare values within a part only. Changes are numbered by the printed parent chain.

Set 1 — target: CCNB1, cyclin fold, Cln2 fusion (human); technique: yeast growth competition, sequencing; matrix: yeast; setting: weak parent motif; baseline: not given; reading: higher = stronger binding
Starting sequence: RB1 docking peptide (human); PKPLKKLRFDIEG
| Variant | normalised enrichment score |
| --- | --- |
| PKPLKKLRFDIEN [G13N] | 0.00523 |
| PKPLKKLRKDIEG [F9K] | 0.42 |
| PKPLKKVRFDIEG [L7V] | 0.0678 |
| PKPLKFLRFDIEG [K6F] | 0.585 |
| PKPLKKLRFSIEG [D10S] | -0.795 |
| PKPLKKLGFDIEG [R8G] | 0.425 |
| PKPLEKLRFDIEG [K5E] | -0.6 |
| PKPLKQLRFDIEG [K6Q] | 0.972 |
| PKYLKKLRFDIEG [P3Y] | 0.219 |
| PKPLKKLRFDIGG [E12G] | 1.21 |
| PDPLKKLRFDIEG [K2D] | 0.239 |
| PKPLVKLRFDIEG [K5V] | 0.251 |
| PKMLKKLRFDIEG [P3M] | 0.356 |
| PPPLKKLRFDIEG [K2P] | 0.335 |
| PKPLKKLRFCIEG [D10C] | 0.15 |
| PKPLKKLRFDIYG [E12Y] | 0.968 |
| AKPLKKLRFDIEG [P1A] | 0.769 |
| PKPLKKLRFAIEG [D10A] | 0.271 |

Set 2 — technique: aptamer microarray, sandwich; form: DNA with 2'F-ANA; matrix: in vitro; tested at: 200 nM; added: Cy3 exosite-II aptamer, 400 nM; reading: higher = stronger binding; strand: GGTTGGTGTGGTTGG
Target: Prothrombin, mature alpha-thrombin (F2, Homo sapiens, UniProt P00734)
Setting: whole 15-mer aptamer, many near background
| Modification | mean fluorescence intensity [a.u.] |
| --- | --- |
| 2'F-ANA at 8 9 10 13 | 137 |
| 2'F-ANA at 4 6 9 12 | 537 |
| 2'F-ANA at 2 3 4 9 10 12 13 14 | 189 |
| 2'F-ANA at 2 3 4 6 7 8 9 10 13 14 | 153 |
| 2'F-ANA at 1 3 4 5 7 8 9 13 | 60.2 |
| 2'F-ANA at 4 | 393 |
| 2'F-ANA at 1 2 3 6 8 9 10 11 12 13 | 74.3 |
| 2'F-ANA at 2 4 7 10 13 15 | 183 |
| 2'F-ANA at 5 9 10 13 | 50.2 |
| 2'F-ANA at 3 4 6 8 9 10 11 12 | 261 |
| 2'F-ANA at 1 4 5 7 8 9 11 | 53.3 |
| 2'F-ANA at 1 2 3 5 6 9 11 12 13 15 | 81 |
| 2'F-ANA at 1 2 3 4 12 13 | 254 |
| 2'F-ANA at 2 4 6 9 10 14 15 | 60.1 |
| 2'F-ANA at 4 5 6 7 8 9 12 13 14 15 | 48.1 |
| 2'F-ANA at 2 3 4 5 7 11 13 | 88.8 |
| 2'F-ANA at 2 4 5 7 11 12 15 | 118 |
| 2'F-ANA at 3 4 5 6 7 8 11 12 13 14 15 | 55.4 |
| 2'F-ANA at 1 2 6 7 8 11 14 15 | 58.6 |

Set 3 — technique: protein-binding microarray; form: double-stranded DNA, one strand shown; matrix: in vitro; tested at: 250 nM; setting: 60-bp whole probe; added: salmon DNA 0.4 mg/ml; baseline: random background probes; reading: higher = stronger binding; all sequences stand within: GCCTAGCAC … GTCTTGATTCGCTTGACGCTGCTG
Target: Interferon regulatory factor 7, full length, phosphomimetic (IRF7, Homo sapiens, UniProt Q92985, residues 1-503, S101K/S471D/S472D/S475D/S476D/S477D/S483D/S484D/S487D)
Construct (chain): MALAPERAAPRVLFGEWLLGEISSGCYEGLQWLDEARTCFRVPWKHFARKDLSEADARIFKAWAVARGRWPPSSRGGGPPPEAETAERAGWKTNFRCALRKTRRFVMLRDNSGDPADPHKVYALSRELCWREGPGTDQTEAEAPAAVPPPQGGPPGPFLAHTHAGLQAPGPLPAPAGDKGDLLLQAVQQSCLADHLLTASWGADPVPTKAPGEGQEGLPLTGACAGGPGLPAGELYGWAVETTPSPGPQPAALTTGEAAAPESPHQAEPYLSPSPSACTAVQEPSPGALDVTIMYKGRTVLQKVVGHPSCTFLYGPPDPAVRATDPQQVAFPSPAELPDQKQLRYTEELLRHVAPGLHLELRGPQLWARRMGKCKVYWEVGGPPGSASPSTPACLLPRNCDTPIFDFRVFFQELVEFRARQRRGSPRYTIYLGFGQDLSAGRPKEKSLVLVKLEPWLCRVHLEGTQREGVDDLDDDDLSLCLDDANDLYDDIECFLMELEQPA
| Strand | log fluorescence [z-score] |
| --- | --- |
| TTAGGACTGGGTCTCGGTGAGTGCTAG | -0.175 |
| AACGATCTCAGTTTCGAGACGTGCTAG | 3.93 |
| TTAGGTTTCCTGTTCCTTTAGTGCTAG | 3.01 |
| GACGGTATCGTGTTTCGGGACGTGCTA | 1.65 |
| CTCTCCATGTGTTTAAAAAGGTGCTAG | 0.622 |
| CTATTTTTCCCCTGCACTCAGTGCTAG | 2.53 |
| TTAGGACTGGACAATGGGTTAGTGCTA | -0.434 |
| TACGAACTGGGGTATCGAGACGTGCTA | -0.075 |
| TTAGGTTTCGGGTTTCGGTTCGTGCTA | 13.9 |
| GACGATTCCACTTTCGAGACGTGCTAG | 1.64 |
| TTAGGTCTCCTTTTCCTTCAGTGCTAG | 2.14 |
| TTAGGTGTCGGGTTTCGGTTAGTGCTA | 4.88 |
| TTTTATGAAGGCCGGGGAGGGTGCTAG | 0.446 |
| TGTTATTAAAATTTCATGAAGTGCTAG | 0.802 |
| CTCCAACAAGGCTATCCCTCGTGCTAG | -0.49 |
| TTAGATACCAGTCTCGATTAGTGCTAG | 1.81 |
| TTAGGTCTCGGACGGGGTTAGTGCTAG | 0.187 |
| TCATTACTTTCTATCTCACTGTGCTAG | 1.43 |
| TCACCTTTGCCTCCAGGACTGTGCTAG | 0.122 |
| GACGGTATCGGGTTTCCGGACGTGCTA | 2.05 |
| TTAGATATCGGGACTGGCTTAGTGCTA | -0.478 |
| TCACATCTCTGTCCGTGACTGTGCTAG | 0.566 |
| GTGTTTTCACTTTTCCTACAGTGCTAG | 3.86 |
| TTAGGTATTGGTCTCGGTTAGTGCTAG | 1.68 |
| GCGATCCTCTCACCTCAGCCTGTGCTA | -0.0555 |

Set 4 — technique: RNA Bind-n-Seq; form: RNA; matrix: in vitro; tested at: 365 nM; baseline: no-protein control; reading: higher = stronger binding
Target: RNA binding protein fox-1 homolog 2, RRM domain, GST-SBP tag (RBFOX2, Homo sapiens, UniProt O43251-10, residues 100-194)
Setting: natural RNA segment, single round, ends assumed
All sequences stand within: GGGAGUUCUACAGUCCGACGAUC … UGGAAUUCUCGGGUGCCAA
| Strand | RBNS enrichment (R) |
| --- | --- |
| UUUUUUAAAUAAGGGAUAACAUAUUCUUUAUAGAAUAGUGCUUGUUCUGGAAGAGAUUCAGGUGAAAAGUUGGCGUGGCAUGUUUGAGGACUCUGCGGAUCAGUGCUACA | 0.993 |
| GAUGGGCCCUAUACCUCCAGCCGUGAAUGCCAGACUUUAGAUUGCCCGGAGGAAGCAAACUCUUCGUAUAAAAAAAGCAGGCCAUCUGCUUAACCCUUGGCUCCACCAUA | 0.747 |
| AAUACAGUCUAAGUGAAGAAAAUAAAUAAAAGGAAGAGGUUUAUAACUUGCUCUAUAUCUGUACAGAUUAUAAUCAAUAAGUGCACUAUUAUUAAAUGUUUAAAGUAAGG | 6.55 |
| UUGACUAAAACAAGAUAAUGAGACAUAAUUUUCUUUAUAAUGUGUACAACACCUAAUAUACACUAACAGCAGUAAGACUAAGCCAGGCAGUCUUAAAAAAUUCUAUCAGA | 0.429 |
| CCGAGUCUUCUUAGAUGACUGAGCACUGCUUGAUGUUGUGUUUUGAAUAAUUUAAUCUGUACAAUAAAUACAGUAUAGGCUGAUCAAGGAGCAUUUUGUAAGCUGCCCUC | 0.453 |
| UAACAAACACAACUAAGGCCUCUGGUACCCUCUGCCCUGCUGGCCUGGUGAUGUCCCAGUGUCUCAGAACUGAUCACUUGCUCCUCCUAUUGUGUGAACCACUCUUAGCA | 2.48 |
| CACCAGCAGCACCCAGAGCCGCUCCUUGCUGCCCUAGAACUAGCAGUUAAAAGACUCCAGAAGCCUGUCUCCCCUGCCUGUGUCUGCUCUCCCUCUAUGUCUAUGGUGUC | 0.883 |
| UGAGAGGCUGGCUUUUGUUUACUAAGUUGUAGCAUUUAGACAUCCCAUGGCAGUCUAACUUAGCCUGCUUGUCUAAAUUGACUUCUGGUAACCACUUGGGCUAGGACACA | 0.376 |
| UGUAGAUAAAGACUUAAAUUUUUGUGCAACAUAGUGGUGUUAAAGCACACAUCCAUUGGACUAUGCAAAUCAAUUUCUACUAGCAGCACUGAGCAACUGGGCACGUGCUA | 0.903 |
| GCCUGCCACCCCCUGACAAAAACAGGUUCCACAGUGCUACCCUUGCUUCCUGCCCCUUGAGGUGGGCCAGGCUGGCUCCUGGCUAUGCAGGGAUCUCUGGUCCCCAGGAG | 0.385 |
| UUAAGUUUAAAAAUCUUAAGUUUAUUAUGUUAAAUUGAAUUUUGUCAACCCUUCUUUUUAAAUUAAAAUAAUUGAAUAGAGUGCCUAGUUAAAUUUUCUCAAAGCAAGGU | 0.948 |
| CAUUUCCAGGUAAGAGGAUCAGCGGAGAUAACUAGCAAUUUGGAGGUUAGUGUUUAGCUCUACCAAACCUGAGUCAGCCGAAUGGAAGUUAUAUGGGCCUGUAACACAAA | 0.41 |

Set 5 — technique: protein binding microarray; form: double-stranded DNA, one strand shown; matrix: in vitro; tested at: not given; baseline: not given; reading: higher = stronger binding
Target: Histone acetyltransferase KAT6A, winged helix 1, GST fusion (KAT6A, Homo sapiens, UniProt Q92794, residues 1-85)
Setting: 8-mer, flanks averaged, mean of 2 arrays, mostly near background
Construct (chain): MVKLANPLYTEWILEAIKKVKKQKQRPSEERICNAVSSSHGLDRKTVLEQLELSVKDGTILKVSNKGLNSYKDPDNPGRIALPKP
| Strand | E-score |
| --- | --- |
| ATTGCCCG | 0.173 |
| CACCGGGG | 0.225 |
| CCTCCGCG | 0.368 |
| AGGTGGCG | -0.0228 |
| ATCAGGAG | -0.163 |
| TAATGTCA | -0.0981 |
| GCCGGCTA | 0.343 |
| GCCTGTCC | -0.0799 |
| AGATCGCG | 0.203 |
| GAAAGAGA | -0.137 |
| ACACAACC | -0.043 |
| AACCGCTA | 0.164 |
| ACGGCCCT | 0.26 |
| CGAGTTGC | -0.0323 |
| GCAAGTCC | -0.132 |
| AACTTTCG | -0.174 |
| AGCCTCTG | -0.126 |
| CGGCAATC | 0.34 |
| TTGTACAA | -0.254 |
| CATGTGCA | -0.0134 |
| GGCACGAC | -0.0625 |
| AATAAATG | -0.207 |
| TAGATCAA | -0.346 |
